Published values gathered from unrelated publications.
Numbered parts are unrelated; each lists some results of a single study. Positions count from the first letter of the parent shown.

Set 1 — method: RNA Bind-n-Seq; form: RNA; sample: in vitro; concentration: 365 nM; baseline: no-protein control; direction: higher = stronger binding; measurement: RBNS enrichment (R)
Target: RNA binding protein fox-1 homolog 2, RRM domain, GST-SBP tag (RBFOX2, Homo sapiens, UniProt O43251-10, residues 100-194)
Setting: natural RNA segment, single round, ends assumed
Residues (chain): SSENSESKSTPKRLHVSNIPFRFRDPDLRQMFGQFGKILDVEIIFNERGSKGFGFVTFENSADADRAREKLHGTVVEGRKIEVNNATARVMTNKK
Oligonucleotide = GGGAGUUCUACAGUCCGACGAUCCCUACAUUCCCUGGCCUGGCUCUCCUGUAGCUCUCCUGGGGUUCUGGGAGUUCCCUGAACAUCUGUGUGUGUCCCCCUAUGCUCCAGUAUGGAAGAAUGGGGUGGAGGGUUGGAAUUCUCGGGUGCCAA; result = 0.519
Oligonucleotide = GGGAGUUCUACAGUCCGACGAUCGUACCAAGGAAGGUGACCAGUAUUGUUUACAGAUGAUUUUCUAAGGAAAAGUUGAGGGGGACUUAGGAAUAAUUUCCUUAUAAAAAGGAGCCUUAUUCUGUACCCCACUUUGGAAUUCUCGGGUGCCAA; result = 0.245
Oligonucleotide = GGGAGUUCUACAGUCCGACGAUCAAAUAUUGUCAUAAUAGAAGCACAGCUUGAACAAAAGACUGAAUUCUGAUAUAAACUGUCAAUAUUGCUUUUACCAUGUGUAAGAUUUACUUAGUAAUCACAGAUUUACCUGGAAUUCUCGGGUGCCAA; result = 0.496
Oligonucleotide = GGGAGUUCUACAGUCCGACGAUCUGUGUGCUUUCCACAGGGGCGUCUCUGCGUCCACGCCUGCACAUCCCGGCGCACGUGUGGGCACCACAGAGGACACGUGAGGGGAAUGGUCACCAGUGAGCCAUAUUUAUUGGAAUUCUCGGGUGCCAA; result = 0.344
Oligonucleotide = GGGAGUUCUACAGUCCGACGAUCUGGCCUACGGUGAUGCCUGUGGUGAUGCCAGGUUGUCCGCUCACAUGAGUCCCAUCUGUAAAUUCUUUGCUCCCUUCUCCGAUGCUGCCACCCAAGGCCUUCUCCUGCCUUGGAAUUCUCGGGUGCCAA; result = 0.787
Oligonucleotide = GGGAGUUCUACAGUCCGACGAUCUCUCUUUUACACUCCCCUGUCCCCACCCCAGUGCACUCUUCUGGCCCAGGCAGCAAGCAAGCUGUGAACAGCUGGCCUGAGCUGUCGCUGUGGCUUGUGGCUCAUGCGCCUGGAAUUCUCGGGUGCCAA; result = 0.946
Oligonucleotide = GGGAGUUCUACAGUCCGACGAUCUUGCACCAAAGAGAUAUGGAGACAUAAACCUGUAAUGAAUGAGGCUGGGCUUUUCUGUAAUAAGCUUCCUUUUAUAAUACUGGUCAGCUUAGCUCUCUCAGAUCCUAUCCUGGAAUUCUCGGGUGCCAA; result = 0.352
Oligonucleotide = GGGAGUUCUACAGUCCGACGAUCAGUAGUUCUAUUGGGCACUAUAGUCAGUUGGGAGUGGUUGCUAUACCUUGACUUCAUUUAUAUGAAUUUCCACUUUAUUAAAUAAUAGAAAAGAAAAUCCCGGUGCUUGCUGGAAUUCUCGGGUGCCAA; result = 1.11

Set 2 — target: CCNB3, cyclin fold, Cln2 fusion (human); method: yeast growth competition, sequencing; sample: yeast; setting: weak parent motif; baseline: not given; direction: higher = stronger binding; measurement: normalised enrichment score
Parent: MASTL docking peptide (human); PMIAKNLMCELDE; partner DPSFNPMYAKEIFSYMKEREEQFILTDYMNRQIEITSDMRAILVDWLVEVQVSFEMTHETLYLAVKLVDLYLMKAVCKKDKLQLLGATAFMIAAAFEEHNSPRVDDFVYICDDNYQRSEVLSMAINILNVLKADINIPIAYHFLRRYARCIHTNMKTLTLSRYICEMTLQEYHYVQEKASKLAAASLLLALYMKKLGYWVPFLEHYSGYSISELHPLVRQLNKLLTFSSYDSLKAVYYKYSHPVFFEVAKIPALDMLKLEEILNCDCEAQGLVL
Change = M2A; result = -0.244
Change = L11M; result = -0.481
Change = D12C; result = 0.26
Change = I3Y; result = 0.287
Change = D12A; result = 0.207
Change = K5H; result = -0.244
Change = C9L; result = -0.241
Change = I3H; result = 0.00143
Change = D12M; result = 0.217
Change = M8I; result = -0.144
Change = C9K; result = -0.249
Change = M8Q; result = -0.0621
Change = E10A; result = 0.21
Change = I3Q; result = -0.00784

Set 3 — method: RNA Bind-n-Seq; form: RNA; sample: in vitro; concentration: 1 µM; setting: whole 134-nt RNA, ends assumed; added: 150 mM KCl; baseline: input library; direction: higher = stronger binding; measurement: log2 enrichment
Target: Ras GTPase-activating protein-binding protein 1, RRM domain (G3BP1, Homo sapiens, UniProt Q13283)
Sequence of UniProt Q13283 (whole entry, looked up): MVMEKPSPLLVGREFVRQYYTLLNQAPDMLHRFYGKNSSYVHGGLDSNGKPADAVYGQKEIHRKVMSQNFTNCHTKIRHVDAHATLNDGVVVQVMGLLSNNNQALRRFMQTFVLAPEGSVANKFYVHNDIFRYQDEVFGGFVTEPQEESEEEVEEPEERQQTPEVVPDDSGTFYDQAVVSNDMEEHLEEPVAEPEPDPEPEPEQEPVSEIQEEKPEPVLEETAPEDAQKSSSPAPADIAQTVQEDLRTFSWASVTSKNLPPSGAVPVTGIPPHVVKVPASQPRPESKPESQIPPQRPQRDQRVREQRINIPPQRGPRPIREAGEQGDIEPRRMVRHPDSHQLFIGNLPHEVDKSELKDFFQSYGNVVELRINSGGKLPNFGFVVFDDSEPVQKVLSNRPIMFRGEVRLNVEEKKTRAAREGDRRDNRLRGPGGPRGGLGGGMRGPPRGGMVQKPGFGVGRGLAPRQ
Oligonucleotide = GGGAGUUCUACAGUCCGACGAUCAGUCCUGUGCUACACAUCGUAUGUACCGAAUCGGAAAAAGGGGAAAAAGGAAAAAGGAAAGUAUUAUGUUACGCCGUUCGGAUCUGCACUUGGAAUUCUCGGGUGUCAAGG; result = -0.0129
Oligonucleotide = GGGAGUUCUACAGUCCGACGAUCAAGUCCUGUGCUACACAUCGUAUGUACCGAAUCGGGGUUUGGGGUUUGGGGAGGGGAAAGUAUUAUGUUACGCCGUUCGGAUCUGCACUUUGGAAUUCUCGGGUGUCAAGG; result = 1.39
Oligonucleotide = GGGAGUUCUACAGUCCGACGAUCUCCUGUGCUACACAUCGUAUGUACCGAAUCAAAUUUUUUUAAAUUUAAACCCCCCCAAAAAAGUAUUAUGUUACGCCGUUCGGAUCUGCAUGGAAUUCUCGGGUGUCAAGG; result = -0.935
Oligonucleotide = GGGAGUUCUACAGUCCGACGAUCCUCAAGUCCUGUGCUACACAUCGUAUGUACCGAAUCGGUUUGGUGGUUUUUGGAAAGUAUUAUGUUACGCCGUUCGGAUCUGCACUUCCAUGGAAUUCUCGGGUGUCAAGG; result = -0.21
Oligonucleotide = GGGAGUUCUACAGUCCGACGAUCUCAAGUCCUGUGCUACACAUCGUAUGUACCGAAUCGGAAGGGAAGGGGAAGGGGAAAGUAUUAUGUUACGCCGUUCGGAUCUGCACUUCCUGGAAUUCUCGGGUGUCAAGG; result = 0.289
Oligonucleotide = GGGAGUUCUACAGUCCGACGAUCGCAUAAUGGAUAUUUUUUAACUUGGCGAGAUGUGUCUCUCAAUCCUGUGGCUUUGGUGAGAGAGUGUGCAGAGAGCAAUGAUAGCAAAUAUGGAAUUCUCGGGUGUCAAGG; result = -0.232
Oligonucleotide = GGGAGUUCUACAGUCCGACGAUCUGGCCCUGGUGGCAUGCGGGGAGUAAGAGGUGGCCUCAUGGAUCGUGGUGGUCCCGGUGGAAUGUUCAGAGGUGGCCGUGGUGGAGACAGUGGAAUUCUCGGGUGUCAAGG; result = 0.923
Oligonucleotide = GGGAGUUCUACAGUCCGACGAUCAGUCCUGUGCUACACAUCGUAUGUACCGAAUCGGGGAAAAAGGGGAAAGGGGAGGGGAAAGUAUUAUGUUACGCCGUUCGGAUCUGCACUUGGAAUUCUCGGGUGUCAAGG; result = 1.03
Oligonucleotide = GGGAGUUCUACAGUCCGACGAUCGUCCUGUGCUACACAUCGUAUGUACCGAAUCGGGGCCCCCGGGGCCCCCGGCCCCCGGAAAGUAUUAUGUUACGCCGUUCGGAUCUGCACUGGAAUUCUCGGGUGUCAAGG; result = -0.504

Set 4 — method: protein binding microarray; form: double-stranded DNA, one strand shown; sample: in vitro; concentration: not given; baseline: not given; direction: higher = stronger binding; measurement: E-score
Target: Histone acetyltransferase KAT6A, winged helix 2, GST fusion (KAT6A, Homo sapiens, UniProt Q92794, residues 85-181)
Setting: 8-mer, flanks averaged, mean of 2 arrays, mostly near background
Construct (chain): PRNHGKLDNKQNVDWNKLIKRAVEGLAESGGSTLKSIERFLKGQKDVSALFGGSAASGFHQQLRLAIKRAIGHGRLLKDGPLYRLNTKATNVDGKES
Oligonucleotide = GCACCAGC; result = 0.084
Oligonucleotide = CCCCTTTC; result = -0.0709
Oligonucleotide = GCTCCCGA; result = -0.00685
Oligonucleotide = CTTGGAGA; result = -0.0219
Oligonucleotide = CTGAAAAG; result = -0.107
Oligonucleotide = GAGGCTGA; result = -0.012
Oligonucleotide = CAAATGTA; result = -0.224
Oligonucleotide = CCGGGAGA; result = 0.13
Oligonucleotide = GGAGAGCC; result = -0.0286
Oligonucleotide = CATTAAGC; result = -0.0548
Oligonucleotide = AGTTTCAA; result = -0.0127
Oligonucleotide = CTCGTAGC; result = 0.0421
Oligonucleotide = AAACCACT; result = -0.0444
Oligonucleotide = AGGCTGTA; result = -0.119
Oligonucleotide = TATCTGGA; result = -0.0818
Oligonucleotide = CACAAAAA; result = 0.135
Oligonucleotide = ATTGCGAG; result = 0.127
Oligonucleotide = ACAGATGG; result = -0.246
Oligonucleotide = AGGTTTAA; result = -0.0738
Oligonucleotide = CCAGTCTC; result = -0.0529
Oligonucleotide = GTCTGCCA; result = -0.0742
Oligonucleotide = TACTATAA; result = -0.119
Oligonucleotide = CCTTTCCC; result = 0.0876
Oligonucleotide = ACAAGGCT; result = -0.154
Oligonucleotide = GAGACTCC; result = -0.0493

Repeated from above (set 3):
Oligonucleotide = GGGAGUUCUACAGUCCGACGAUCAGUCCUGUGCUACACAUCGUAUGUACCGAAUCGGAAAAAGGGGAAAAAGGAAAAAGGAAAGUAUUAUGUUACGCCGUUCGGAUCUGCACUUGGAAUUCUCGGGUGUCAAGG; result = -0.0129
Oligonucleotide = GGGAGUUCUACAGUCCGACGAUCAAGUCCUGUGCUACACAUCGUAUGUACCGAAUCGGGGUUUGGGGUUUGGGGAGGGGAAAGUAUUAUGUUACGCCGUUCGGAUCUGCACUUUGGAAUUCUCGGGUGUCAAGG; result = 1.39
Oligonucleotide = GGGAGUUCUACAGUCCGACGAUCUCCUGUGCUACACAUCGUAUGUACCGAAUCAAAUUUUUUUAAAUUUAAACCCCCCCAAAAAAGUAUUAUGUUACGCCGUUCGGAUCUGCAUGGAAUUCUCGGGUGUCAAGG; result = -0.935
